Measured values of several laboratories.
Compare with care: the assays were run in different laboratories.
MAPK3: Mitogen-activated protein kinase 3 (MAPK3, Homo sapiens, UniProt P27361)
Chain of UniProt P27361 (whole entry, looked up): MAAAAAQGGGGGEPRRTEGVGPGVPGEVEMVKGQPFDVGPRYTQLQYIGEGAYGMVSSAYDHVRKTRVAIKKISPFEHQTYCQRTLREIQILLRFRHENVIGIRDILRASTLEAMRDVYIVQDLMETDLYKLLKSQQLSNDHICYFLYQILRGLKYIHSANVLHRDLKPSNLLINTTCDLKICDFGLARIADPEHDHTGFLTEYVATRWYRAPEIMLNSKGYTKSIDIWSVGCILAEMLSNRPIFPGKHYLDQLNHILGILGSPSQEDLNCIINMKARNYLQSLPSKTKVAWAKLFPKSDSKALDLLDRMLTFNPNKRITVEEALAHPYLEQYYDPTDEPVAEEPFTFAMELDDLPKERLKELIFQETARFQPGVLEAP
MTNR1B: Melatonin receptor type 1B (MTNR1B, Homo sapiens, UniProt P49286)
Chain of UniProt P49286 (whole entry, looked up): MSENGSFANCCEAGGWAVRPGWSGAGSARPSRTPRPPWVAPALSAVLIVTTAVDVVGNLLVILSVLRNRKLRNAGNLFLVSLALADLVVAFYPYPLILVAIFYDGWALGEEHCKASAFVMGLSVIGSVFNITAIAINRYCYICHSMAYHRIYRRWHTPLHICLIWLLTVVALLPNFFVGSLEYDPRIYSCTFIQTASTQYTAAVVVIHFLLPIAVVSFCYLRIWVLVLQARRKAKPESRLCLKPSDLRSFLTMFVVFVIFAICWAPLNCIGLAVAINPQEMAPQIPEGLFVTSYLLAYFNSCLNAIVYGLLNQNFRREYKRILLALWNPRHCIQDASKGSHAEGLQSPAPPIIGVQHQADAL
Chain of UniProt P05164 (whole entry, looked up): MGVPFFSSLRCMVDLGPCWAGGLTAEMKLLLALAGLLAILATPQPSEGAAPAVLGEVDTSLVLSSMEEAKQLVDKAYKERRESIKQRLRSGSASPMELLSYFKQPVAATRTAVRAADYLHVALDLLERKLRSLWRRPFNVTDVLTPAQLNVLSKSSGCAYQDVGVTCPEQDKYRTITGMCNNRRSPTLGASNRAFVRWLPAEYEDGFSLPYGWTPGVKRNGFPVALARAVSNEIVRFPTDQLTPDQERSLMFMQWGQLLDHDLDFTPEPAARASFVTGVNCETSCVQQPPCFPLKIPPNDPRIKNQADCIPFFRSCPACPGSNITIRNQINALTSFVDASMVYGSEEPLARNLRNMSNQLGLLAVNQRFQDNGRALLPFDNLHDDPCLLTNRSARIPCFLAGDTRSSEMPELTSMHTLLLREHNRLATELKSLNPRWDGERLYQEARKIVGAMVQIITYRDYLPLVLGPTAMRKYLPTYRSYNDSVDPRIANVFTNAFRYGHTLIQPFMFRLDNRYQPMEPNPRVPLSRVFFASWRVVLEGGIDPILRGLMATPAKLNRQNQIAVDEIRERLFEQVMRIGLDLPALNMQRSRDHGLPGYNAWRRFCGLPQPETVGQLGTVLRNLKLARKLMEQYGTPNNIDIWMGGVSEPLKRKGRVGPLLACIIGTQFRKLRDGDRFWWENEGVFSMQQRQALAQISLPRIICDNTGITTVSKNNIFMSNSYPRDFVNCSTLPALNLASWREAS
Chain of UniProt P42336 (whole entry, unmodified, looked up): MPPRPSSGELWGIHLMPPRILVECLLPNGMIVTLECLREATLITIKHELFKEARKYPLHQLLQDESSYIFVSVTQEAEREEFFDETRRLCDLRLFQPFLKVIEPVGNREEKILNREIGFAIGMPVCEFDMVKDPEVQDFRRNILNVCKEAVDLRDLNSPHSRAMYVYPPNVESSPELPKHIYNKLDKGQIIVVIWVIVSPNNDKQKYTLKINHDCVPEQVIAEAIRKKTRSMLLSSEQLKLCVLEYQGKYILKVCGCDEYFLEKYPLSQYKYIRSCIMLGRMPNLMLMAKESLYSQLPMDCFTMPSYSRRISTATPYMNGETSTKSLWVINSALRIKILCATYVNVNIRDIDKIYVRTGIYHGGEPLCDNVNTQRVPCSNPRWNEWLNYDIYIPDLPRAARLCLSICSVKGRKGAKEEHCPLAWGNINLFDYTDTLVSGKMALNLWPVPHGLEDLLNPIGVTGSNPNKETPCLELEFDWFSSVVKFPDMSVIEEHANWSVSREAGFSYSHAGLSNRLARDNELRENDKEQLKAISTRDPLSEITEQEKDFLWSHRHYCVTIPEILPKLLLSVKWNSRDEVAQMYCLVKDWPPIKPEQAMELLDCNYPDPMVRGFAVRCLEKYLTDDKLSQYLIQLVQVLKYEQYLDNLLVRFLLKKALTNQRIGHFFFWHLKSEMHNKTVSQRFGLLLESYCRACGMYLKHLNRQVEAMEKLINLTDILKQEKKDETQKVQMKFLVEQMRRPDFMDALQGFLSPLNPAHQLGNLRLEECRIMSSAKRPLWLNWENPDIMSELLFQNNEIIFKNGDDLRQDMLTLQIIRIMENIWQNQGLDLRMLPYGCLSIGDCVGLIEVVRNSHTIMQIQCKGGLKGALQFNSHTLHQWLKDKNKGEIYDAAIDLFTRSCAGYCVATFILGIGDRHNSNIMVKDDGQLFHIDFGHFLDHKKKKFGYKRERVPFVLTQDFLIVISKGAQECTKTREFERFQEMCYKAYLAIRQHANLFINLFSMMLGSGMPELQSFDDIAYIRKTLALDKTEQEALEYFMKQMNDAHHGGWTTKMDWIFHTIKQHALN
Chain of UniProt O43781 (whole entry, looked up): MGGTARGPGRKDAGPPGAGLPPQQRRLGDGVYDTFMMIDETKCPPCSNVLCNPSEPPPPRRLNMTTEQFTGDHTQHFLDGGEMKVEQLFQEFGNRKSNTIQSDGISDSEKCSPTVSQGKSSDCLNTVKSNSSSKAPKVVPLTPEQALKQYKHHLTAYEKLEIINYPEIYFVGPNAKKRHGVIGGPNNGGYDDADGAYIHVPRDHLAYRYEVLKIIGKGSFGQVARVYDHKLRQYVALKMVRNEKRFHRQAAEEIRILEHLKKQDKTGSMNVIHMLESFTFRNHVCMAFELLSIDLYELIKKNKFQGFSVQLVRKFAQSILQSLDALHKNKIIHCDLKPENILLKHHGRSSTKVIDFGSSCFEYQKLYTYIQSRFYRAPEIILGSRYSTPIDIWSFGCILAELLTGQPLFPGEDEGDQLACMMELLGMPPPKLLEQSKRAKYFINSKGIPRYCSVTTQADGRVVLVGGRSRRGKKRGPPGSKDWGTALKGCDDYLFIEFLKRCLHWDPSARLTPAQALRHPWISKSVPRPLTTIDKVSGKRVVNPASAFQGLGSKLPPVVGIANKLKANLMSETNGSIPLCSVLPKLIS
Chain of UniProt P0DMS8 (whole entry, unmodified, looked up): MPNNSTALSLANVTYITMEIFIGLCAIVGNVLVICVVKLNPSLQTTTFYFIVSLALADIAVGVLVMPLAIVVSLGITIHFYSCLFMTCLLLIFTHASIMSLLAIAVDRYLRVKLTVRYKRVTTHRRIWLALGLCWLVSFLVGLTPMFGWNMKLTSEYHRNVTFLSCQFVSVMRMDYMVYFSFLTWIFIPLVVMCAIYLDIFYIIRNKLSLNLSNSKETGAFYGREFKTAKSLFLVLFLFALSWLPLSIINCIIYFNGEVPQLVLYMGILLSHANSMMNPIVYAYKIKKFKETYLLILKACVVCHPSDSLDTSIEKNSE
Chain of UniProt Q9UF33 (whole entry, looked up): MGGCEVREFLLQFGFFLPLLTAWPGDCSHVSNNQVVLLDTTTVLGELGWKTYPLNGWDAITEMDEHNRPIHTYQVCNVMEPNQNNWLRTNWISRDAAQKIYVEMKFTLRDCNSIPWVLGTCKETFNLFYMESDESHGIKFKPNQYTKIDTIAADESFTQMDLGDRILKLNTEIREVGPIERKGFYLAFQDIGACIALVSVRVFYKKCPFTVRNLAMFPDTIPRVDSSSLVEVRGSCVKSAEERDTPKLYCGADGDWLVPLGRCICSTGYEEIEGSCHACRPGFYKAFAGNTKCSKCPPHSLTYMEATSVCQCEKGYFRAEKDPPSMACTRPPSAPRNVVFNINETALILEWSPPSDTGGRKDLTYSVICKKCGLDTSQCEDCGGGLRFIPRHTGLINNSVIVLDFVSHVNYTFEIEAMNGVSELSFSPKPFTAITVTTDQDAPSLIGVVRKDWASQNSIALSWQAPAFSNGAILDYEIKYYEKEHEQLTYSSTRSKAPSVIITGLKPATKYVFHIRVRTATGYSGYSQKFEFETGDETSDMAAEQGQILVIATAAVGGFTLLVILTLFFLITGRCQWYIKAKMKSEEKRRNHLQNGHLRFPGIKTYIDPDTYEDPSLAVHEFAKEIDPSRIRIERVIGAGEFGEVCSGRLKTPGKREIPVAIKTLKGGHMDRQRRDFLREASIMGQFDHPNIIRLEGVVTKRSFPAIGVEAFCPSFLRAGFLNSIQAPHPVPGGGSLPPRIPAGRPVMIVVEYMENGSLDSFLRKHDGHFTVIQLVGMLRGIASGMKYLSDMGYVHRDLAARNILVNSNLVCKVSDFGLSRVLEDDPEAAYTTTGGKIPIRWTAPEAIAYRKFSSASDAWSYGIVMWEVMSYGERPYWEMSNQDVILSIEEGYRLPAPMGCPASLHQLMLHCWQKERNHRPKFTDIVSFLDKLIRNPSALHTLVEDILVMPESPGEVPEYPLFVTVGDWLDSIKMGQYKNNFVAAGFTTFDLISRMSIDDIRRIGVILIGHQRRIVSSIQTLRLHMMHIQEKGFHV

Structure (SMILES)	tested on	test	test system	setting	quantity	result
CNc1ncc2c(/C=C/C(=O)N3CCC(OC)CC3)nn(Cc3cccc(C(F)(F)F)c3)c2n1	PRKG2 (Homo sapiens, UniProt Q13237)	enzyme activity, inhibitor, radiometric		1 µM	remaining activity	101%
C1=C/COCc2cc(ccc2OCCN2CCCC2)Nc2nccc(n2)-c2cccc(c2)COC/1	EPHA6 (Homo sapiens, UniProt Q9UF33)	binding		0.1 µM	remaining binding	100%
CC[C@H](C)[C@H](NC(=O)[C@H](CCC(N)=O)NC(=O)[C@H](CC(C)C)NC(=O)[C@H](CCSC)NC(=O)[C@H](CCCCN)NC(=O)[C@H](CO)NC(=O)[C@H](CO)NC(=O)[C@H](CCSC)NC(=O)[C@H](CC(C)C)NC(=O)[C@H](CC(N)=O)NC(=O)[C@@H](NC(=O)[C@@H](NC(=O)[C@H](CO)NC(=O)[C@H](CC(C)C)NC(=O)[C@H](CS)NC(=O)[C@H](CCCNC(=N)N)NC(=O)[C@H](CC(=O)O)NC(=O)[C@H](Cc1c[nH]c2ccccc12)NC(=O)[C@H](Cc1ccccc1)NC(=O)[C@H](C)NC(=O)[C@H](CCC(=O)O)NC(=O)[C@@H](N)CCCCN)C(C)C)[C@@H](C)CC)C(=O)N[C@@H](CC(N)=O)C(=O)N[C@@H](C)C(=O)O	MAPK3	enzyme activity, inhibitor, radiometric		100 µM, 20 min	remaining activity	94%
CC(=NNC(=O)c1ccccc1O)c1ccc(Nc2nnc(-c3ccc(Cl)cc3)c3ccccc23)cc1	HepG2	cell growth or viability, MTT		5 µM, 24 h	viability	15.8%
COc1cccc(-c2n[nH]c(SCc3ccccn3)n2)c1OC			female Sprague-Dawley rat, plasma	intravenous, 1 mg/kg, 2 h, single dose	concentration	63.6 ng/mL
Nc1ncnc2occ(-c3ccc(NC(=O)Nc4cc(C(F)(F)F)ccc4F)cc3)c12	PIK3CA (Homo sapiens, UniProt P42336, H1047L)	cell-free assay, inhibitor		20 µM	remaining signal	65%
NC/C(=C\F)COc1cccc(Cn2c(=S)[nH]c(=O)c3[nH]cnc32)c1	Myeloperoxidase (MPO, Homo sapiens, UniProt P05164)	enzyme activity, inhibitor, fluorescence		4.1 nM	inhibition	28%
CCCCC(=O)Nc1ccc(-c2ccc3ncn(CCC)c(=O)c3c2)cn1	PRKD1 (Homo sapiens, UniProt Q15139)	binding, competition with immobilised ligand		0.5 µM	remaining binding	90%
C=C[C@@]1(C)C=C2CC[C@@H]3[C@](C)(CCC[C@@]3(C)C(=O)O)[C@H]2CC1	Helicobacter pylori	microbial growth, broth dilution		0.48 µg/mL	inhibition	13.9%
CN(C)c1nccc(-c2cnn3ncccc23)n1	CDC42BPG (Homo sapiens, UniProt Q6DT37)	binding		1 µM	remaining binding	100%
CN(C)c1ncnc2c1ncn2[C@@H]1O[C@H](CO)[C@@H](O)[C@H]1O	ADORA3 (Homo sapiens, UniProt P0DMS8, I253N)	G protein activation, agonist			EC50	15 µM
O=c1nc(N2CCN(CC3CCCCC3)CC2)sc2c([N+](=O)[O-])cc(C(F)(F)F)cc12			CD-1 mouse, plasma	intravenous, 10 mg/kg, 1 h	concentration	2090 ng/mL
Cc1cc(NS(=O)(=O)c2ccc(N=NN(C)O)cc2)no1	AMY2 (Sus scrofa, UniProt P00690)	enzyme activity, inhibitor		60 µg/mL	inhibition	15.8%
COc1cc(-c2cncc3c2CN(C)Cc2cc(N4CCNCC4)ccc2-3)cc(OC)c1OC	ULK3 (Homo sapiens, UniProt Q6PHR2)	enzyme activity, inhibitor		1 µM	remaining activity	107%
CC(=NNC(=O)c1ccncc1)c1ccc(Nc2nnc(-c3ccc(Cl)cc3)c3ccccc23)cc1	HepG2	cell growth or viability, MTT		10 µM, 24 h	viability	5.36%
CN1CC(Oc2cnc(C#N)cc2-c2ccn3nc(NC(=O)C4CC4)cc3c2)C1	DYRK3 (Homo sapiens, UniProt O43781)	enzyme activity, inhibitor		1 µM	inhibition	8%
COc1ccc2oc(-c3ccc4nc(N)oc4c3)c/c(=N\c3ccccc3NC(=O)CCN)c2c1	SRC (Homo sapiens, UniProt P12931)	cell-free assay, inhibitor		1 µM	remaining signal	98%
Cc1cc([C@@H](C)Nc2ccccc2C(=O)O)c2nc(N3CCC(F)(F)CC3)c(C#N)c(=O)n2c1	PRKACA (Homo sapiens, UniProt P17612)	binding, competition with immobilised ligand		1 µM	remaining binding	78%
COc1cccc(OC)c1-c1cc(C(=O)NC2(C(=O)O)C3CC4CC(C3)CC2C4)nn1-c1ccc(C(=O)N(C)CCCN(C)CCCN(C)C(=O)CN2CCN(CC(=O)[O-])CCN(CC(=O)[O-])CCN(CC(=O)[O-])CC2)cc1C(C)C.[177Lu+3] (centres unmarked)	HT-29 tumour model		host not given, stomach	24 h, tumour-bearing	tracer uptake	0.069 %ID/g
Nc1ncnc2c1ncn2[C@@H]1O[C@H](COP(=O)(O)OP(=O)(O)OP(=O)(O)O)[C@@H](O)[C@H]1O	MAP2K1 (Homo sapiens, UniProt Q02750)	thermal stability, DSF			ΔTm	2 °C
FC(F)(F)Oc1cccc(-c2cnc3ccc(-c4ccncc4)nn23)c1	EPHA1 (Homo sapiens, UniProt P21709)	cell-free assay, competition with immobilised ligand		5 µM	remaining binding	90%
Cc1cc(-c2c3ccccc3c(Br)c3sc(C)c(C)c23)cc(C)c1O[C@H](Cc1ccccc1)C(=O)O	PTPN1 (Homo sapiens, UniProt P18031)	thermal stability, DSF			ΔTm	> 5 °C
O=C(NCCc1cccc2ccccc12)C1CCC1	MTNR1B	cAMP, agonist, TR-FRET	CHO-K1	20 min	Emax	22%
CC[C@H](C)[C@H](NC(=O)[C@H](CCC(N)=O)NC(=O)[C@@H](NC(=O)[C@H](CCSC)NC(=O)[C@H](CCCCN)NC(=O)[C@H](CO)NC(=O)[C@@H](NC(=O)[C@H](CCSC)NC(=O)[C@H](CC(C)C)NC(=O)[C@H](CC(N)=O)NC(=O)[C@@H](NC(=O)[C@@H](NC(=O)[C@H](CO)NC(=O)[C@H](CC(C)C)NC(=O)[C@H](C)NC(=O)[C@H](CCCNC(=N)N)NC(=O)[C@H](CCC(=O)O)NC(=O)[C@H](Cc1ccc(O)cc1)NC(=O)[C@H](Cc1ccccc1)NC(=O)[C@H](C)NC(=O)[C@H](CC(N)=O)NC(=O)[C@@H](N)CCCCN)[C@@H](C)CC)[C@@H](C)CC)[C@@H](C)O)C(C)C)C(=O)N[C@@H](CC(N)=O)C(=O)N[C@H](C(=O)O)C(C)C	MAPK3	enzyme activity, inhibitor, radiometric		10 µM, 20 min	remaining activity	100%
O=C(NCc1cc(O)c(O)c(Br)c1)c1cccc(C(F)(F)F)c1	Replicase polyprotein 1ab, main protease (rep, Porcine epidemic diarrhea virus, UniProt P0C6Y4)	enzyme activity, inhibitor, FRET		10 µM	inhibition	98.5%
COc1ccc2ncn(CCNC(C)=O)c2c1	MTNR1A (Homo sapiens, UniProt P48039)	cAMP, agonist, TR-FRET	CHO-K1	20 min	Emax	60%
Nc1ccn([C@@H]2O[C@H](CO)[C@@H](O)C2(F)F)c(=O)n1	HEK293	cell growth or viability, MTT		0.3125 µg/mL, 48 h	viability	85.9%
COc1cc(I)c2[nH]cc(CCNC(C)=O)c2c1	MTNR1B	β-arrestin recruitment, agonist	MT2	90 min	Emax	95%
C=CC(=O)N1CCC(COCC(=O)N2CCN(c3nc(-c4cnc(N)nc4C(F)F)nc(N4CCOC[C@@H]4C)n3)CC2)CC1	CAMK4 (Homo sapiens, UniProt Q16566)	binding, competition with immobilised ligand		1 µM	remaining binding	100%

Repeated from above:
Structure (SMILES)	tested on	test	test system	setting	quantity	result
Cc1cc(-c2c3ccccc3c(Br)c3sc(C)c(C)c23)cc(C)c1O[C@H](Cc1ccccc1)C(=O)O	PTPN1 (Homo sapiens, UniProt P18031)	thermal stability, DSF			ΔTm	> 5 °C
O=C(NCCc1cccc2ccccc12)C1CCC1	MTNR1B	cAMP, agonist, TR-FRET	CHO-K1	20 min	Emax	22%
CC[C@H](C)[C@H](NC(=O)[C@H](CCC(N)=O)NC(=O)[C@@H](NC(=O)[C@H](CCSC)NC(=O)[C@H](CCCCN)NC(=O)[C@H](CO)NC(=O)[C@@H](NC(=O)[C@H](CCSC)NC(=O)[C@H](CC(C)C)NC(=O)[C@H](CC(N)=O)NC(=O)[C@@H](NC(=O)[C@@H](NC(=O)[C@H](CO)NC(=O)[C@H](CC(C)C)NC(=O)[C@H](C)NC(=O)[C@H](CCCNC(=N)N)NC(=O)[C@H](CCC(=O)O)NC(=O)[C@H](Cc1ccc(O)cc1)NC(=O)[C@H](Cc1ccccc1)NC(=O)[C@H](C)NC(=O)[C@H](CC(N)=O)NC(=O)[C@@H](N)CCCCN)[C@@H](C)CC)[C@@H](C)CC)[C@@H](C)O)C(C)C)C(=O)N[C@@H](CC(N)=O)C(=O)N[C@H](C(=O)O)C(C)C	MAPK3	enzyme activity, inhibitor, radiometric		10 µM, 20 min	remaining activity	100%
